Experimental data from different studies.
± marks the error that the study gave.

N=C(N)NCCC[C@H](NC(=O)CON=C[C@H](F)[C@@H](O)[C@H](O)[C@H](O)CO)C(=O)NCC(=O)N[C@@H](CC(=O)O)C(=O)O [fluorine-18 labelled]  tissue uptake (nude mice U-87 MG tumour, stomach; intravenous, 0.5 h): 0.61 ± 0.5 %ID/g
CCCC[C@@H]1NC(=O)[C@@H](NC(=O)[C@H](CCC(=O)O)NC(=O)CNC(=O)CN2CCN(CC(=O)O)CCN(CC(=O)O)CCN(CC(=O)O)CC2)CCCCNC(=O)C[C@@H](C(N)=O)NC(=O)[C@H](C(C)C)NC(=O)[C@@H]2CCCN2C(=O)[C@H](CCCNC(=N)N)NC(=O)CNC(=O)[C@H](Cc2c[nH]c3ccccc23)NC(=O)[C@H](CCCNC(=N)N)NC(=O)[C@@H](Cc2ccccc2)NC(=O)[C@H](Cc2c[nH]cn2)NC(=O)[C@H](CCC(=O)O)NC1=O [gallium-67 labelled]  tissue uptake (C57 mice, B16/F1 flank melanoma, bone; intravenous, 2 h, together with: blocking peptide 10 µg): 0.18 ± 0.03 %ID/g
CCCC[C@H](NC(=O)CNC(=O)CNC(=O)CN1CCN(CC(=O)O)CCN(CC(=O)O)CC1)C(=O)N[C@H]1CC(=O)NCCCC[C@@H](C(N)=O)NC(=O)[C@H](Cc2c[nH]c3ccccc23)NC(=O)[C@H](CCCNC(=N)N)NC(=O)[C@@H](Cc2ccccc2)NC(=O)[C@H](Cc2c[nH]cn2)NC1=O [gallium-67 labelled]  tissue uptake (female C57 mice, B16/F1 melanoma, pancreas; intravenous, 0.037 MBq, 24 h): 0.88 ± 0.31 %ID/g
O=C([O-])CN1CCN(CC(=O)[O-])CCN(CC(=O)NCCc2ccc3c(c2)C2C=CCC2C(c2cc4c(cc2Br)OCO4)N3)CCN(CC(=O)[O-])CC1.[111In+3] (stereo not drawn)  tissue uptake (mice with Hec50 tumour xenograft, Hec50 tumour; 2 h): 0.6 ± 0.03 %ID/g
CCCC[C@H](NC(=O)CN1CCC(NC(=O)CN2CCN(CC(=O)O)CCN(CC(=O)O)CCN(CC(=O)O)CC2)CC1)C(=O)N[C@H]1CC(=O)NCCCC[C@@H](C(N)=O)NC(=O)[C@H](Cc2c[nH]c3ccccc23)NC(=O)[C@H](CCCNC(=N)N)NC(=O)[C@@H](Cc2ccccc2)NC(=O)[C@H](Cc2c[nH]cn2)NC1=O [gallium-68 labelled]  tissue uptake (C57BL/6J mice male B16-F10 tumour, kidney; 2 h post injection, unblocked): 5.5 ± 0.4 %ID/g
N=C(N)NCCC[C@@H]1NC(=O)[C@H](CCCCNC(=O)CON=C[C@H](F)[C@@H](O)[C@H](O)[C@H](O)CO)NC(=O)[C@@H](Cc2ccc(O)cc2)NC(=O)[C@H](CC(=O)O)NC(=O)CNC1=O [fluorine-18 labelled]  tissue uptake (nude mice U-87 MG tumour, lung; intravenous, 2 h): 0.6 ± 0.66 %ID/g
CCCC[C@H](NC(=O)CNC(=O)CNC(=O)CN1CCN(CC(=O)O)CCN(CC(=O)O)CCN(CC(=O)O)CC1)C(=O)N[C@H]1CC(=O)NCCCC[C@@H](C(N)=O)NC(=O)[C@H](Cc2c[nH]c3ccccc23)NC(=O)[C@H](CCCNC(=N)N)NC(=O)[C@@H](Cc2ccccc2)NC(=O)[C@H](Cc2c[nH]cn2)NC1=O [gallium-67 labelled]  tissue uptake (female C57 mice, B16/F1 melanoma, muscle; intravenous, 0.037 MBq, 4 h): 0.32 ± 0.07 %ID/g
CC(C)[C@H](NC(=O)[C@@H]1CCCN1C(=O)[C@H](CCCNC(=N)N)NC(=O)[C@H](CS)NC(=O)[C@H](Cc1c[nH]c2ccccc12)NC(=O)[C@H](CCCNC(=N)N)NC(=O)[C@@H](Cc1ccccc1)NC(=O)[C@H](Cc1c[nH]cn1)NC(=O)[C@H](CCC(=O)O)NC(=O)[C@H](CS)NC(=O)[C@H](CS)NC(=O)[C@@H]1CC(=O)N[C@@H](CCCNC(=N)N)C(=O)NCC(=O)N[C@@H](CC(=O)O)C(=O)N[C@H](Cc2ccc(O)cc2)C(=O)N1)C(N)=O [technetium-99m labelled]  tissue uptake (C57 mice B16/F1 melanoma female, skin; iv, 2 h, together with: NDP-MSH 10 µg co-injected): 0.99 ± 0.35 %ID/g
O=C([O-])c1cccc(CN(CCN(Cc2cn(Cc3ccccc3)nn2)Cc2cccc(C(=O)[O-])n2)Cc2cn(Cc3ccccc3)nn2)n1.[64Cu+2]  tissue uptake (healthy athymic nude mice, skin; intravenous, 1 h): 1.77 %ID/g

For quick reference, copied from above:
O=C([O-])CN1CCN(CC(=O)[O-])CCN(CC(=O)NCCc2ccc3c(c2)C2C=CCC2C(c2cc4c(cc2Br)OCO4)N3)CCN(CC(=O)[O-])CC1.[111In+3] (stereo not drawn)  tissue uptake (mice with Hec50 tumour xenograft, Hec50 tumour; 2 h): 0.6 ± 0.03 %ID/g
